{"data": "Measurements collected from several papers", "note": "Numbered parts are unrelated; each lists some results of a single study."}
{"data": "Series 1", "target": "PABPC1L2, full length, GST fusion (mouse, UniProt A0ABA7IW68)", "technique": "RNAcompete", "form": "RNA", "sample": "in vitro", "tested at": "20 nM", "setting": "7-mer, probes averaged, single round", "relative to": "mean of 7-mers", "reading": "higher = stronger binding", "Target sequence (chain)": "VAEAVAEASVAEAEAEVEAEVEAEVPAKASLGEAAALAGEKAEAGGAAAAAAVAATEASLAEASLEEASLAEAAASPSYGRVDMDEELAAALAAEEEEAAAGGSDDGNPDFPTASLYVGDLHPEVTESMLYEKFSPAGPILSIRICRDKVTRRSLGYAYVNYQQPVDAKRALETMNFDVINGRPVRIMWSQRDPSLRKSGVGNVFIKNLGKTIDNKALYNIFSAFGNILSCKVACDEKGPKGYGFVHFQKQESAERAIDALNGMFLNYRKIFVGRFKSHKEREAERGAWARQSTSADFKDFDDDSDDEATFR"}
{"Sequence": "AACUCAU", "7-mer Z-score": -0.0989}
{"Sequence": "CCUUCGG", "7-mer Z-score": -0.443}
{"Sequence": "AAACCAU", "7-mer Z-score": 0.575}
{"data": "Series 2", "target": "Sal-like protein 4, full length isoform B (SALL4, Homo sapiens, UniProt Q9UJQ4-2, residues 1-616)", "technique": "universal PBM", "form": "double-stranded DNA, one strand shown", "sample": "in vitro", "tested at": "not given", "setting": "8-mer, flanks averaged, mean of replicates", "reading": "higher = stronger binding", "Residues (chain)": "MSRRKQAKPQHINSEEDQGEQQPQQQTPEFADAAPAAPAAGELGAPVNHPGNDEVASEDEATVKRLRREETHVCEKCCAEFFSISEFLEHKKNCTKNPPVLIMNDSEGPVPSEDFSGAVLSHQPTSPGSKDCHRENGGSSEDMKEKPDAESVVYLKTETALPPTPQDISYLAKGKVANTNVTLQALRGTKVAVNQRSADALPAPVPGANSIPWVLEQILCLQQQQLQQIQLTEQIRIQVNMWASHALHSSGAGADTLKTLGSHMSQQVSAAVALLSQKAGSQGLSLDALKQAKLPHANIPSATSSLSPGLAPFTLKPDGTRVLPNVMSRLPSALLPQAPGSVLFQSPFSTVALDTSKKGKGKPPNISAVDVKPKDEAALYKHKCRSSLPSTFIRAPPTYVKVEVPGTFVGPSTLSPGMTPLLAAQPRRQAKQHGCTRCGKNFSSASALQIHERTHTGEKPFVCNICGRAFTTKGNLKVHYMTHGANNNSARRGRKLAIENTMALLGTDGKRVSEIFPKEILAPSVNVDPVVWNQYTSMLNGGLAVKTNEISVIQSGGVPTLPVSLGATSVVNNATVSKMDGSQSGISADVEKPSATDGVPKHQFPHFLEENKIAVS"}
{"Sequence": "CTCAGATC", "E-score": -0.0828}
{"Sequence": "GAGATTAA", "E-score": 0.13}
{"Sequence": "AAGCGTAG", "E-score": -0.0887}
{"Sequence": "CGTAACTA", "E-score": 0.0744}
{"data": "Series 3", "target": "Prothrombin, mature alpha-thrombin (F2, Homo sapiens, UniProt P00734)", "technique": "aptamer microarray, sandwich", "form": "DNA with 2'F-ANA", "sample": "in vitro", "tested at": "200 nM", "setting": "whole 15-mer aptamer, many near background", "added": "Cy3 exosite-II aptamer, 400 nM", "reading": "higher = stronger binding"}
{"Sequence": "GGTTGGTGTGGTTGG (2'F-ANA at 5 8 9 10 11)", "mean fluorescence intensity": "82.7 a.u."}
{"Sequence": "GGTTGGTGTGGTTGG (2'F-ANA at 12 14)", "mean fluorescence intensity": "292 a.u."}
{"Sequence": "GGTTGGTGTGGTTGG (2'F-ANA at 1 3 4 5 6 8 9 14 15)", "mean fluorescence intensity": "49.7 a.u."}
{"Sequence": "GGTTGGTGTGGTTGG (2'F-ANA at 3 4 7 8 10 12 14 15)", "mean fluorescence intensity": "212 a.u."}
{"data": "Further values, each from its own experiment"}
{"Molecule": "PhoQ, residues 284 288 289 292 302 303 SSTLSG", "target": "PhoP, residues 12 14 15 18 19 LYHSL (Escherichia coli, UniProt P23836)", "test": "Sort-seq, refers to: YFP reporter", "system": "E. coli", "conditions": "PhoQ-PhoP variant library, added: 10 µM Mg2+", "scale": "relative to: high Mg2+ state, higher = stronger signaling", "endpoint": "fold induction", "result": 1.13}
{"note": "Excerpt of the above (series 1):"}
{"Sequence": "AACUCAU", "7-mer Z-score": -0.0989}
{"Sequence": "AAACCAU", "7-mer Z-score": 0.575}
